Experimental data gathered from unrelated publications.
Each numbered part is a random draw from the data of one study; scales do not carry over between parts. Positions count from the first letter of the parent shown.

Block 1
Target: Ras GTPase-activating protein-binding protein 1, C-terminal RGG region (G3BP1, Homo sapiens, UniProt Q13283)
UniProt Q13283, sequence (whole entry, looked up): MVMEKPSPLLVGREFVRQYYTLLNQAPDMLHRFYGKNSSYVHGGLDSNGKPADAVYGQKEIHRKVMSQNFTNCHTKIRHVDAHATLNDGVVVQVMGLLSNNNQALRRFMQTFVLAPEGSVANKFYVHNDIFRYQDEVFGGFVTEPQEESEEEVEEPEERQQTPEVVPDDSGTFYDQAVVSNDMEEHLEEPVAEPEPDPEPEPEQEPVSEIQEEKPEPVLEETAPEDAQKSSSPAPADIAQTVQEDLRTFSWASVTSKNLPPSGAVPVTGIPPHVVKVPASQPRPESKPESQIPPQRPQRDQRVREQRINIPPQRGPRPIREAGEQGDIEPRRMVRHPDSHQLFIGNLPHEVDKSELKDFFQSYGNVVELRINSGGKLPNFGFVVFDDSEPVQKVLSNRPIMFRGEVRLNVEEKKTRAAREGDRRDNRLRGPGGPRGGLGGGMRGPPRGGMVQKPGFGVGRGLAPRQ
Technique: RNA Bind-n-Seq
Form: RNA
Matrix: in vitro
Concentration: 1 µM
Setting: whole 134-nt RNA, ends assumed
Added: 150 mM KCl
Baseline: input library
Direction: higher = stronger binding
Sequence | log2 enrichment
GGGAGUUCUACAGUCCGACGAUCCUGUGCUACACAUCGUAUGUACCGAAUCGGGGUUUUUUUGGGGUUUUUUUGGUUUUUUUGGAAAGUAUUAUGUUACGCCGUUCGGAUCUGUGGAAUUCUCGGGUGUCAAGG | -1.31
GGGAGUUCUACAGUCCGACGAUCACCAUGCAGGUGGGCAAAUUUGGGAAGUGGGGCAAGGGGGGGAUAGGGAGGGGGGUAACACUUUGGGAACAGGUGGUCCCAGGUCGUUUCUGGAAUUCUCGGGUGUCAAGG | -1.05
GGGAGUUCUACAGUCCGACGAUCGCAGGAAGUAAAAACAAAUGGAAAUGCUUCGGAUAGUGGCAGGGGUGGGGGUUGCUAAGGAAAGGGUGGGAUGCGAGUGGGUAAAGAGUUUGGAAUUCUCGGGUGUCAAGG | 1.91
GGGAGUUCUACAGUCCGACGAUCAGUCCUGUGCUACACAUCGUAUGUACCGAAUCGGCCCCCGGCCCCCGGGGCCCCCGGAAAGUAUUAUGUUACGCCGUUCGGAUCUGCACUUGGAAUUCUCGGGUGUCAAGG | -1.5
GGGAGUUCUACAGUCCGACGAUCUUCUCUCUCUCCCUUUGCAGCCGCUGUACAACCAGCCCUCCGACACCCGGCAGUAUCAUGAGAACAUCAAAAUGUGAGUGCUCGCGGGCAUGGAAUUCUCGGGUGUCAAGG | -0.0944
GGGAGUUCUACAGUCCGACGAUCGUCCUGUGCUACACAUCGUAUGUACCGAAUCGGGGAAAAAGGGGAAAAAGGGAAAAAGGAAAGUAUUAUGUUACGCCGUUCGGAUCUGCAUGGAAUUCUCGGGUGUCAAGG | -1.18
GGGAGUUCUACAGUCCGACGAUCAAGUCCUGUGCUACACAUCGUAUGUACCGAAUCGGCCCCGGGGCCCCGGCCCCGGGAAAGUAUUAUGUUACGCCGUUCGGAUCUGCACUUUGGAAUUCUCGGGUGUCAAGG | -2.46
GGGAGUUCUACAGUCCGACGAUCCUCAAGUCCUGUGCUACACAUCGUAUGUACCGAAUCGGGAAAGGGAGGGUGGGAAAGUAUUAUGUUACGCCGUUCGGAUCUGCACUUCCAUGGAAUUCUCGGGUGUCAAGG | 1.94
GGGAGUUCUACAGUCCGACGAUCUCAAGUCCUGUGCUACACAUCGUAUGUACCGAAUCGGAAAGGUGGUUUUUUUGGAAAGUAUUAUGUUACGCCGUUCGGAUCUGCACUUCCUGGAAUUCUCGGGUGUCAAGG | -1.26
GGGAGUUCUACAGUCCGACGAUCUUCCAGGCUCAAGCACGGACAUCAGUGAGGACUGGGAGAAAGACUUUGACUUGGACAUGACUGAAGAGGAGGUGCAGAUGGCACUUUCCAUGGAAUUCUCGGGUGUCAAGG | -0.252
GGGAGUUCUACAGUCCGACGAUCGCAGGAAGUAUAAACAAAUGGAAAUGCUUCGGAUAGUGGCAGGGGUGGGGGUUGCUAAGGAAAGGGUGGGAUGGGAGUGGGUAAAGAGUUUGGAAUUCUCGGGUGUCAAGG | 1.07
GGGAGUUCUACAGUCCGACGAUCCCUCAAGUCCUGUGCUACACAUCGUAUGUACCGAAUCGGUUUUUGGAGGAGGAAAGUAUUAUGUUACGCCGUUCGGAUCUGCACUUCCAGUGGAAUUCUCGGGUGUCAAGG | -0.702
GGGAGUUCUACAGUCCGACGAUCUGCUUCUCUAUGGAAAGGACUUUCCCCCAAGCUGGACGAGGCAUUAAGAAGGAUAGAGGACUCCAGCAGGCUGACUCUACACUUCAUCAUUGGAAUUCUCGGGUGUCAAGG | -0.776
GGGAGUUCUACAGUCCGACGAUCAAGUCCUGUGCUACACAUCGUAUGUACCGAAUCGGAAAAGGGGAAAAGGGAAAAGGGAAAGUAUUAUGUUACGCCGUUCGGAUCUGCACUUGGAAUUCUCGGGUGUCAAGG | -0.735

Block 2
Target: Sal-like protein 4, full length isoform A (SALL4, Homo sapiens, UniProt Q9UJQ4, residues 1-1053)
UniProt Q9UJQ4, sequence (whole entry, looked up): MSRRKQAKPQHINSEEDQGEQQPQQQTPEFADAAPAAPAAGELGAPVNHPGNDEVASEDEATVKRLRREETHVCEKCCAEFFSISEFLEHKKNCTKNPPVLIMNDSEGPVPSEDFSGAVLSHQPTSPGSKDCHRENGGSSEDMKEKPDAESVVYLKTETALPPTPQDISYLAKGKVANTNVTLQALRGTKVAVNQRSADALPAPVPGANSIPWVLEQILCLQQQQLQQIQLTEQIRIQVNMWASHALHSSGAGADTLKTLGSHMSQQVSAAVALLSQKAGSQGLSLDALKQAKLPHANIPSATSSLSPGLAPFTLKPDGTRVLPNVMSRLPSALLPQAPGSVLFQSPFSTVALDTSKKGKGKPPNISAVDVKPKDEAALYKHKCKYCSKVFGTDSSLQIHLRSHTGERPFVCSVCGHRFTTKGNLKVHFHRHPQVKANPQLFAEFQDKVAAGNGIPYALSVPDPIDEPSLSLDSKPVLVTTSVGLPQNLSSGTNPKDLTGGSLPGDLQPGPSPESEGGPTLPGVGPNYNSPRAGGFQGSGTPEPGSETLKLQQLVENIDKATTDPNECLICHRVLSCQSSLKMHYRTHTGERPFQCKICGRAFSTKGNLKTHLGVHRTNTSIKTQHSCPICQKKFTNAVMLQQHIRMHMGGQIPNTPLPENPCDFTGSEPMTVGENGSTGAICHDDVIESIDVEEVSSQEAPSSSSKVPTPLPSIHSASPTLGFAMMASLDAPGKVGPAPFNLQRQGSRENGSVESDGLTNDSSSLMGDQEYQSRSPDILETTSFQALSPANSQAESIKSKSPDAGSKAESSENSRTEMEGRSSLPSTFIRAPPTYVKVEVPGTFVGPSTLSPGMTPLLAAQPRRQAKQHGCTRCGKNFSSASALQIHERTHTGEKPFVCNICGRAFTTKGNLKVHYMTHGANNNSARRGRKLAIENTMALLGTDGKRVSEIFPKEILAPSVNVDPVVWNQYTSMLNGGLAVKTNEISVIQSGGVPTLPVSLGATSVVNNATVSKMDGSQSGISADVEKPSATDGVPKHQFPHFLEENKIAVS
Technique: universal PBM
Form: double-stranded DNA, one strand shown
Matrix: in vitro
Concentration: 600 nM
Setting: 8-mer, flanks averaged, mean of replicates
Direction: higher = stronger binding
Sequence | E-score
CGCCCGCC | -0.362
GGAAACTA | -0.131
ACCCCTCG | -0.256
CAAGCGTG | -0.014
CACTCGGC | -0.135
CGGCATTA | 0.0876
CCCTAAGC | -0.214
AGTCTTCA | 0.0209
CCCCTACC | -0.233
CATGACTA | 0.102
CCTACAGC | -0.19
TACTTCGA | 0.207
CAAAATAC | 0.293
ACTCCTCA | 0.0726
GGCTAAGA | -0.0977
AGAACAAG | 0.121
CAAGCCGC | -0.399
CGCGCGTC | -0.181
TCGCAAGA | -0.0762
AGTCCAAT | 0.151
TGACCTCA | -0.149
ATTAGTTG | 0.263
GACAGCGC | -0.149
ACCTCTCC | -0.0367
CAACCATC | -0.085

Block 3
Target: Histone acetyltransferase KAT6A, winged helix 1, GST fusion (KAT6A, Homo sapiens, UniProt Q92794, residues 1-85)
Technique: protein binding microarray
Form: double-stranded DNA, one strand shown
Matrix: in vitro
Concentration: not given
Setting: 8-mer, flanks averaged, mean of 2 arrays, mostly near background
Baseline: not given
Direction: higher = stronger binding
Target sequence (chain): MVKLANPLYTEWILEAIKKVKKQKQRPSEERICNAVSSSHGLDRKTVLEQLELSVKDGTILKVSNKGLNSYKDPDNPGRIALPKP
Sequence | E-score
GGATCTAC | -0.205
CTTCCGGA | -0.0496
AGGCTAAC | -0.109
ATACGTCG | 0.15
CACTGCCG | 0.226
GAGCGATC | 0.0416
GGAGCAGA | -0.0402
GTGTTATA | 0.00058
AGGAATCC | -0.054
TATCGGAA | -0.0817
TGAATTCA | -0.286
GGTATACC | 0.0472
GCTTGAAA | -0.0856
GGACGACC | 0.0281
CTGAAAGC | -0.0319
CTGAGTCA | 0.0492
AAGTAGTG | -0.0786
ACGACACA | -0.245
AATCAACG | -0.122
GACGCAAC | 0.223
TCATGACA | -0.0657
AGGTGTGG | -0.113
ATGACCAT | -0.086
AACTCTGA | -0.213
GCATATAC | 0.138

Block 4
Target: CEP164, C-terminal peptide (human)
Technique: DHFR complementation, deep sequencing
Matrix: yeast
Setting: single substitutions, model-inferred values
Baseline: wild type
Direction: higher = weaker binding
Parent: PDZK1, PDZ domain 2 (human); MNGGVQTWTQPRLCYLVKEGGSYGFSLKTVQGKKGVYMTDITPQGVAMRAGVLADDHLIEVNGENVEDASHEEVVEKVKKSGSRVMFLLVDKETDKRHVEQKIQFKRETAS; partner HNRVKVYRF
Change | binding free energy change [kcal/mol]
D56E | 0.731
A54I | 0.199
G21M | -0.0386
V5W | 0.0333
E72Y | 0.553
M48G | 0.145
I103P | -0.0862
L13A | -0.0628
T94E | 0.0892
Q6W | 0.078
G20T | 0.253
K34M | 0.357
D68V | 0.235
I59T | 0.599
D91Q | -0.104
D56I | 1.26
H98I | -0.0771
E60D | 0.289
V61R | 1.44
Y23F | -0.145
I41K | 1.36
G4R | -0.0376
A47L | 1.14

Block 5
Target: RNA binding protein fox-1 homolog 2, RRM domain, GST-SBP tag (RBFOX2, Homo sapiens, UniProt O43251-10, residues 100-194)
Technique: RNA Bind-n-Seq
Form: RNA
Matrix: in vitro
Concentration: 365 nM
Setting: natural RNA segment, single round, ends assumed
Baseline: no-protein control
Direction: higher = stronger binding
Residues (chain): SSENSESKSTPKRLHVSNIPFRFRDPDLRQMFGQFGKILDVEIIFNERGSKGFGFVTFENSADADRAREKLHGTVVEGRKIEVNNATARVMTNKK
Sequence | RBNS enrichment (R)
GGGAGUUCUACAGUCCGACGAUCUGCAGAGGUGGCAUCCAGUGUGGGCCCUAGCACUCCAGAGACUGGCCCGGGCGUGCACUAGGCGGGGCAAGAGGAAGCACGUCCCCAAGUUGAUUGUAGUUGUCCCGUCCUGGAAUUCUCGGGUGCCAA | 5.77
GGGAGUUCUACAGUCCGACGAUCAGUGAAUUUUUAAUGCUGAAGAUAAAGUAAGCUAAAGUACCAGCAGAAGCCUUGGCUAUUUAUAGCAGUUCUGACAAUAGUUUUAUAAGAACAUGAAGAGAACAGAAUCAUGGAAUUCUCGGGUGCCAA | 0.597
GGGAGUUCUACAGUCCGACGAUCUGGAGAGUGGGGAGAGGCACUUAAUCUGUAACCCCCAAGGAGGAAAUAACUAAGAGAUUCUUCUAGGGGUAGCUGGUGGUUGUGCCUUUUGUAGGCUGUUCCCUUUGCCUUGGAAUUCUCGGGUGCCAA | 0.463
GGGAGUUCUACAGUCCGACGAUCGAGUCCUGCCUACUUUGACUUUUACGUUCCCAUUCCUGUGUUACCACCUUCCUCCCGAUUUGUUCACCUAUUUUGUGCUUUAAAUCUCAAUAAAAUACUUACUGAGGGAAUGGAAUUCUCGGGUGCCAA | 0.464
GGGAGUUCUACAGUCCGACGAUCCUUGUGGCUACAUCAUCCCUGGCUGUGGAUAGUGCUUUUGUGUAGCAAAUGCUCCCUCCUUAAGGUUAUAGGGCUCCCUGAGUUUGGGAGUGUGGAAGUACUACUUAACUUGGAAUUCUCGGGUGCCAA | 0.624
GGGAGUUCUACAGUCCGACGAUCCUGUGGAUCUCUCUCCUUGGCCUUCAGUCCCUGCAGUAUUUUACUGUCAGAUAGCAUGUGGUGCCUCUACUUGUAAAUGUCAAAUCUUUGAAAUAAACUAUUACAGAUAUUGGAAUUCUCGGGUGCCAA | 3.32
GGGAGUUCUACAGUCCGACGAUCUUUUUAUUUGGGCAUAAAAGUUGUUGCCUUUAUUUGUAAAGCUGUUAUAAAUAUAUAUUAUAUAAAUAUAUGACAAAGGAAAAUGUUUCAGAUGUCUAUUUGUAUAAUUAUGGAAUUCUCGGGUGCCAA | 1.88
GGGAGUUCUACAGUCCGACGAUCGCAGGGAAGUGUUGUGGCCGGCUGGACUGUGCCUGCUUUAGAGUAGACAGAGAGGGACGUGGGCAUGUUUUAUUUGGAGGGAUGUUUAUUCCCUGAGAUUACAGAAGUACUGGAAUUCUCGGGUGCCAA | 2.43
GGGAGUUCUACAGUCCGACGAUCCACAGAGGAUACCUUUGUCCACGAAGCCCACUUAACUCACAGCCUUCCUCCUGCCUCAGUCUCCCAAGUGCUACAAUGACGGGCCUUUGCCACUAUGCUUGGCUGGCCUUUGGAAUUCUCGGGUGCCAA | 0.477
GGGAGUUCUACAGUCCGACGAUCUCUUUUGUAACUUUGCAGACAAAUAAGUAUGAGUCACUGGGGAGAGAGUUUGUUAUUGAAAUAGAUGUUGCCCAUGAAGAAUUCUCCUUCCUGGAUUGACUCUUAAUCAUUGGAAUUCUCGGGUGCCAA | 0.318
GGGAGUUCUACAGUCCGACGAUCAAAGUUCCAGAGUAAACAAAUGGUGCCAUCAUUCAAGAUAACAUGCUGAUCACCCUCCUCCCAAAAAGCAAGAGCUUGUUUAUGGCUGAGGAAUCGGCGGAUUGUCUGAAUGGAAUUCUCGGGUGCCAA | 0.459
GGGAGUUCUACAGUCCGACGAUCCCUGUGUCUCACUCUGUCUUCUUGUCACUUGAUGUGCAUUUGCUGUUGUUCUUUCGUUUCUGUCUAAAUGUCAGUGUGUUCAAACCCCCAGAGGGUUCUGUUUUUCCCAUUGGAAUUCUCGGGUGCCAA | 0.773

Further values, each from its own experiment
Substance | target | test | test system | conditions | scale | quantity | value
PhoQ, residues 284 288 289 292 302 303 SLKLQV | PhoP, residues 12 14 15 18 19 NQFFI (Escherichia coli, UniProt P23836) | Sort-seq, item: YFP reporter | E. coli | PhoQ-PhoP variant library, added: 10 µM Mg2+ | baseline: high Mg2+ state, higher = stronger signaling | fold induction | 9.02

Some of these lines once more (block 2):
Sequence | E-score
CGCCCGCC | -0.362
CCCTAAGC | -0.214
CGCGCGTC | -0.181
CAAGCCGC | -0.399
CCTACAGC | -0.19
TGACCTCA | -0.149
AGTCCAAT | 0.151
GGAAACTA | -0.131
CGGCATTA | 0.0876
ATTAGTTG | 0.263
ACTCCTCA | 0.0726
ACCTCTCC | -0.0367
AGTCTTCA | 0.0209
